Experimental data pooled from the literature.
Values joined by “and” are separate records of one study, mostly repeats; a detail may differ. ± marks the error that the study gave.
UniProt P21397, sequence (whole entry, looked up): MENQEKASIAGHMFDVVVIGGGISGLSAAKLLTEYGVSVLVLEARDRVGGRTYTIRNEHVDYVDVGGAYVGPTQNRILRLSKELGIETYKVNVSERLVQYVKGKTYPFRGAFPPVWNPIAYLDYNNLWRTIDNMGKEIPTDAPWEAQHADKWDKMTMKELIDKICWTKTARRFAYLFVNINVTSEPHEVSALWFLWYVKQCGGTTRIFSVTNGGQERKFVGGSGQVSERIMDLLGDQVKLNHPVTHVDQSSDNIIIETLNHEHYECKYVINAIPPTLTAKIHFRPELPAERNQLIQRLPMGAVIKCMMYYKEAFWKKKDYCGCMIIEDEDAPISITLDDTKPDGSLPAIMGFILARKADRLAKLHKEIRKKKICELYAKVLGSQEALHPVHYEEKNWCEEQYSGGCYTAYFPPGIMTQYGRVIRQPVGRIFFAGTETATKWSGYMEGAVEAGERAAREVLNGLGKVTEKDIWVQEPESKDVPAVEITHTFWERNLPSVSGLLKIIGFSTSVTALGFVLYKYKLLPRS

The viability of `COc1ccc(-c2coc3c(CC=C(C)C)c(O)c(CC=C(C)C)c(O)c3c2=O)cc1O` is reported as 114% (A549; cell growth or viability, MTT; 6.25 µg/mL).
`COc1ccc(CCCN[C@H]2CCC[C@@H]2CN[C@H]2CCC[C@@H]2CNCCCCN[C@@H]2CCC[C@H]2CN)cc1` gave a Ki of 310 µM (MAOA (Homo sapiens, UniProt P21397); enzyme activity, inhibitor).
For `[64Cu+2].c1ccc(CNCc2ccc(CN3CCCN4CCNCCCN(CC4)CC3)cc2)nc1`, the tissue uptake was 4.4 ± 2.86 %ID/g (CXCR4; NOD/SCID mouse, U87 and U87-stb-CXCR4 xenografts, bladder; iv, 60 min, ex vivo).
`NS(=O)(=O)Nc1ncnc(OCCOc2ncc(Br)cn2)c1-c1ccc(Br)cc1` has a Km of 8.6 ± 0.9 µM (M6 formation; male Beagle dog, liver microsomes; 5 mg/kg daily for 4 weeks).
With `CNc1ccc(-c2nc3ccc(O)c(CN4CCN(C)CCN(C)CC4)c3s2)cn1` the viability was over 80% (Neuro2A; Alamar Blue; up to 10 µM, 40 h; reference: 1% DMSO vehicle).
`COCCNCC(=O)N(CCCCN)CC(=O)N(CC(=O)N(CC(=O)N(CCCCN)CC(=O)N[C@@H](CCCCN)C(=O)N[C@H](CCCCN)C(=O)N[C@@H](CCSC)C(=O)NCCCC[C@H](NC(=O)[C@H](CCSC)NC(=O)[C@@H](CCCCN)NC(=O)[C@H](CCCCN)NC(=O)CN(CCCCN)C(=O)CN(C(=O)CN(Cc1ccc2c(c1)OCO2)C(=O)CN(CCCCN)C(=O)CNCCOC)[C@H](C)c1ccccc1)C(N)=O)[C@H](C)c1ccccc1)Cc1ccc2c(c1)OCO2`: viability “no effect” (HBEC3KT; MTS; concentration not given).
`COc1cc2c(cc1O)[C@]1(O)C(=O)c3c(O)cc4c(c3O[C@@H]1CO2)C=CC(C)(C)O4` gave a viability of 117% (A549; cell growth or viability, MTT; 6.25 µg/mL).
`O=C(N[C@@H](Cn1cncn1)c1ccc(Cl)cc1Cl)c1ccc(-c2nnc(-c3ccccc3)o2)cc1` has a viability of 98.1% and 98% (NIH/3T3; BrdU incorporation; 50 µM, 24 h; reference: DMSO).
`[64Cu+2].c1cnc(CNCc2ccc(CN3CCCN4CCNCCCN(CC4)CC3)cc2)nc1` gave a tissue uptake of 2.21 ± 0.56 %ID/g (CXCR4; NOD/SCID mouse, U87 and U87-stb-CXCR4 xenografts, lungs; iv, 90 min, ex vivo, added: AMD3465 25 mg/kg sc before tracer).
The viability of `Cc1nc(C)c(C=[N+]([O-])C(C)(C)C)nc1C` is reported as 97.8 ± 3.93% (Sprague-Dawley rat primary midbrain neurons; 300 µM, 24 h; reference: untreated).
With `CC[C@H](C)[C@H](NC(=O)[C@H](C)NC(=O)CNC(=O)[C@H](Cc1ccccc1)NC(=O)[C@H](CC(N)=O)NC(=O)[C@H](CC(N)=O)NC(=O)[C@H](CO)NC(=O)[C@H](CO)NC(=O)[C@H](Cc1c[nH]cn1)NC(=O)[C@@H](NC(=O)[C@H](CC(C)C)NC(=O)[C@H](Cc1ccccc1)NC(=O)[C@H](CC(N)=O)NC(=O)[C@H](C)NC(=O)[C@H](CC(C)C)NC(=O)[C@H](CCCNC(=N)N)NC(=O)[C@H](CCC(N)=O)NC(=O)[C@@H](NC(=O)[C@H](C)NC(=O)[C@@H]1CSSC[C@H](NC(=O)[C@@H](N)CCCCN)C(=O)N[C@@H](CC(N)=O)C(=O)N[C@@H]([C@@H](C)O)C(=O)N[C@@H](C)C(=O)N[C@@H]([C@@H](C)O)C(=O)N1)[C@@H](C)O)C(C)C)C(=O)N[C@@H](CC(C)C)C(=O)N[C@@H](CO)C(=O)N[C@@H](CO)C(=O)N[C@H](C(=O)N[C@@H](CC(N)=O)C(=O)N[C@H](C(=O)NCC(=O)N[C@@H](CO)C(=O)N[C@@H](CC(N)=O)C(=O)N[C@H](C(=O)N[C@@H](Cc1ccc(O)cc1)C(N)=O)[C@@H](C)O)C(C)C)[C@@H](C)O` the viability was 62 ± 4% (INS-1; AlamarBlue; 21 µM, 24 h; reference: medium alone).
The viability of `COc1ccc([C@@H]2CC(=O)c3c(O)cc(O[C@@H]4O[C@H](CO[C@@H]5O[C@@H](C)[C@H](O)[C@@H](O)[C@H]5O)[C@@H](O[C@H]5O[C@H](CO)[C@@H](O)[C@H](O)[C@H]5O)[C@H](O)[C@H]4O)cc3O2)cc1O` is reported as 77.1% (MRC5; cell growth or viability, MTS; 50 µg/mL, 48 h).
The steatosis score of `CC[C@H]1[C@@H](O)[C@@H]2[C@H](CC[C@]3(C)[C@@H]([C@H](C)CCOS(=O)(=O)[O-])CC[C@@H]23)[C@@]2(C)CC[C@@H](O)C[C@@H]12.[Na+]` is reported as 3 (histology; ob/ob NASH mouse model, liver; oral, 3 mg/kg once daily, 8 weeks, scale 0 to 3; direction not given).
For `CC(C)=CCc1cc(-c2coc3cc(O)c(CC=C(C)C)c(O)c3c2=O)ccc1O`, the viability was 117% (A549; cell growth or viability, MTT; 12.5 µg/mL).
`CC(C)C[C@H](NC(=O)[C@H](CCCNC(=N)N)NC(=O)[C@H](CCC(N)=O)NC(=O)[C@@H](NC(=O)[C@H](C)NC(=O)[C@@H]1CSSC[C@H](NC(=O)[C@@H](N)CCCCN)C(=O)N[C@@H](CC(N)=O)C(=O)N[C@@H]([C@@H](C)O)C(=O)N[C@@H](C)C(=O)N[C@@H]([C@@H](C)O)C(=O)N1)[C@@H](C)O)C(=O)N[C@@H](C)C(=O)N[C@@H](CC(N)=O)C(=O)N[C@@H](Cc1ccccc1)C(=O)N[C@@H](CC(C)C)C(=O)N[C@H](C(=O)N[C@@H](CCCNC(=N)N)C(=O)N[C@@H](CO)C(=O)N[C@@H](CO)C(=O)N[C@@H](CC(N)=O)C(=O)N[C@@H](CC(N)=O)C(=O)N[C@@H](Cc1ccccc1)C(=O)N1CCC[C@H]1C(=O)N[C@@H](C)C(=O)N1CCC[C@H]1C(=O)N[C@@H](CC(C)C)C(=O)N[C@@H](CO)C(=O)N[C@@H](CO)C(=O)N[C@H](C(=O)N[C@@H](CC(N)=O)C(=O)N[C@H](C(=O)NCC(=O)N[C@@H](CO)C(=O)N[C@@H](CC(N)=O)C(=O)N[C@H](C(=O)N[C@@H](Cc1ccc(O)cc1)C(N)=O)[C@@H](C)O)C(C)C)[C@@H](C)O)C(C)C`: viability “not toxic” (INS-1; AlamarBlue; 42 µM, 24 and 48 h).

A few entries again:
`COc1cc2c(cc1O)[C@]1(O)C(=O)c3c(O)cc4c(c3O[C@@H]1CO2)C=CC(C)(C)O4` gave a viability of 117% (A549; cell growth or viability, MTT; 6.25 µg/mL).
`[64Cu+2].c1cnc(CNCc2ccc(CN3CCCN4CCNCCCN(CC4)CC3)cc2)nc1` gave a tissue uptake of 2.21 ± 0.56 %ID/g (CXCR4; NOD/SCID mouse, U87 and U87-stb-CXCR4 xenografts, lungs; iv, 90 min, ex vivo, added: AMD3465 25 mg/kg sc before tracer).
